Experimental data gathered from unrelated publications.
Numbered parts are unrelated; each lists some results of a single study.

Sample 1 — method: protein-binding microarray; form: double-stranded DNA, one strand shown; medium: in vitro; tested at: 250 nM; notes: 60-bp whole probe; with: salmon DNA 0.4 mg/ml; baseline: random background probes; direction: higher = stronger binding; endpoint: log fluorescence; all sequences stand within: GCCTAGCAC … GTCTTGATTCGCTTGACGCTGCTG
Target: Interferon regulatory factor 7, full length, phosphomimetic (IRF7, Homo sapiens, UniProt Q92985, residues 1-503, S101K/S471D/S472D/S475D/S476D/S477D/S483D/S484D/S487D)
Construct (chain): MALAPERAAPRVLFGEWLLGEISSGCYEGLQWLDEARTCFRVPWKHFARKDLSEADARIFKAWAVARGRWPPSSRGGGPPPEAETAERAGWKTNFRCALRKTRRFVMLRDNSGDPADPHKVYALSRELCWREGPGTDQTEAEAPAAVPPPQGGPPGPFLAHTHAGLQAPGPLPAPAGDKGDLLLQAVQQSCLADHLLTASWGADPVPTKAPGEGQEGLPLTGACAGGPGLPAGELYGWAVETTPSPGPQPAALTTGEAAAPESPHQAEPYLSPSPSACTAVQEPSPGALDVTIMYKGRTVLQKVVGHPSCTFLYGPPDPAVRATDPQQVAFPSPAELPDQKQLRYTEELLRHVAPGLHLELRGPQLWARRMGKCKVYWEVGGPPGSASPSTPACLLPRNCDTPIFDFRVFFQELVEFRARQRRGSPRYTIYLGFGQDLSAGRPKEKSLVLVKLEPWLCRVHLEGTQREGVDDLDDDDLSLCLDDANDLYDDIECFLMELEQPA
TTAGGTTTCGACAGTGGGTTAGTGCTA: 1.66 z-score
TTAGGTTTAGGGTATCGGTTAGTGCTA: 0.625 z-score
TCATTTTTTTTTCCCTGACTGTGCTAG: 1.08 z-score
TTCGGTTTCGGGTATCGGTTAGTGCTA: 8.37 z-score
GGTCTTCTGGGCTGTTTGGTTGTGCTA: -0.63 z-score
TTGCTTCTATAGGCTAGAATCGTGCTA: -0.346 z-score
GACGGTATCCTTCTCCTCACGTGCTAG: 0.211 z-score
TGAAAACTAAGTTTATTAGAGTGCTAG: 0.102 z-score
TTAGGTATCGTGTTTCGGTTAGTGCTA: 4.53 z-score
TCTGTTGCCCGTATCTAGGTGTGCTAG: 0.151 z-score
GACGGTCTCCTTTTCCGGACGTGCTAG: 1.46 z-score
CACGGTCTCCTTATCCTGACGTGCTAG: 0.419 z-score
GAAGGTCTCCTTTTCCTGACGTGCTAG: 1.42 z-score
TCAAGTTTGACATCTTCAACTGTGCTA: 0.0235 z-score
TTAGGTCTCGGACTAGGTTAGTGCTAG: 0.679 z-score
TTAGTTTTCGGGACTGGATTAGTGCTA: 1.39 z-score
AAAGTTTTTCATTTTTTTTCGTGCTAG: 0.957 z-score

Sample 2 — method: RNA Bind-n-Seq; form: RNA; medium: in vitro; tested at: 365 nM; baseline: no-protein control; direction: higher = stronger binding; endpoint: RBNS enrichment (R)
Target: RNA binding protein fox-1 homolog 2, RRM domain, GST-SBP tag (RBFOX2, Homo sapiens, UniProt O43251-10, residues 100-194)
Notes: natural RNA segment, single round, ends assumed
All sequences stand within: GGGAGUUCUACAGUCCGACGAUC … UGGAAUUCUCGGGUGCCAA
Residues (chain): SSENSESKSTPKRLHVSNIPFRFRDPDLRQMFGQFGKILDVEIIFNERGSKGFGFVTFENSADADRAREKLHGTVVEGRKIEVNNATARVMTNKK
GCGCCCCUCAGAAAGCCAUGGCAGCCAUGGAUGGCCAGAGUGAGACUGGACGCCACUGGGCUGGAGCAGGGGGCAGUCCAGGGUUGUGGGGACACAGAUGAGGGCUGGGA: 1.27
CCUGGAGCUGUGGCCUGAGGGCCUGCUGGGGUCCCACUCACCCACUUAGGUCUAGUCGCUAGAUCCCCCGUUUUCCCAAGAAGAGGGUUCGAGCCCUUGGUGGGGACAGC: 0.302
AAGUUAACUAAAGUGAGAAUGAAAAAACAAAAUUCCAAGACACUUUUUAAAAGAAUGUCUGCCCUCACACACUUUUAUGGAUUUGUUUUUCUUACAUACCCAUCUUUUAA: 0.411
AGCCCUGGGGUGGUCAGAGAGGCCCAUGCCACCCGUCCCCACUUGUGACAUCCCCUUCGACCACCAGCUGACCAUGCAUGCCACGUGGCCAGCUGAGUCCAGGACCCUCU: 4.3
CUUGCACUUGUACAUAACUAUACUGUAGUGUCCAGAAUGUUCAGACAUUCAGGGUGUACAUAAACAGAAGAGUAUCAUAAUGUAUUUUUAUUAAACACUAACAUCUGAGU: 0.541
UUUUGAAUGUCCCACUGGACUAACCUUUCUUUUGAUGUGUGUUUUUAGUUUAGAAGUGCUAUAUUCCACAAGGGUUAAGUCAAUGAGGUUGGAAGACACCUAUCUUUUUU: 0.728
AAAUACAGAAUUGGGAAGACAGGACAGAGGUGACAGAGGAUCUUAAGGGAGCACCCUGUUCCUAGACAGAUGGAGAGGCGUAUCCAUGUUUUCCUACAUAAUGUGGUUAA: 0.576
UAUUUUUAAUAUGUAAAUUCUCUCAAAAGGGUCAGGCACCUAGUUAUUAUUUUUUAAUGAUUAUGUGAAAGUUGAAUAUAAUAUACCACUAAAAGUGACAGUUGAAAGUG: 0.429
GAAUUUGACUCUCCAACUUUAGGAACCUCGAAAAGUGAGACGAUUCUGGGAUAAGAAACCUUCCCUGUUUGAGGACAUUGGCUUCAUUUUAUACUGUUUUGGCAUGGACU: 5.94
GGCCCUGGGUAGUCUACCAUUUACUUCACCCCAAGUCCUGCUGCCCAUCCAGUUGGGAAGCCAUGAUUUUCCUAAGAAUCCAGGGCCAUGGGAGAUACAAUUCCAAGUUC: 0.354
CUUUUCUAUUUGCGUUCAAAACUGUGUGUUCUCUUUCUAUUCCUAUUUGAUAGUUUGAGUCAUGGUCUUAGAUAUUAGCUAUUUGUGAGAGGAAACUGGUUUGUAACAAU: 0.431
GCCUUUGGCCCCCUUACUUUUCAGCAAGCCAGGGGCCCAGCAGUCAGCUCCCAGGAUGUGUGGGGAGCUGUCCCUGACUCUGCAGGCCUGAGCGAGUGUGUGAGCAUGCG: 25

Sample 3 — method: RNA Bind-n-Seq; form: RNA; medium: in vitro; tested at: 200 nM; notes: whole 134-nt RNA, ends assumed; with: 150 mM KCl; baseline: input library; direction: higher = stronger binding; endpoint: log2 enrichment
Target: Ras GTPase-activating protein-binding protein 1, full length (G3BP1, Homo sapiens, UniProt Q13283)
Sequence of UniProt Q13283 (whole entry, looked up): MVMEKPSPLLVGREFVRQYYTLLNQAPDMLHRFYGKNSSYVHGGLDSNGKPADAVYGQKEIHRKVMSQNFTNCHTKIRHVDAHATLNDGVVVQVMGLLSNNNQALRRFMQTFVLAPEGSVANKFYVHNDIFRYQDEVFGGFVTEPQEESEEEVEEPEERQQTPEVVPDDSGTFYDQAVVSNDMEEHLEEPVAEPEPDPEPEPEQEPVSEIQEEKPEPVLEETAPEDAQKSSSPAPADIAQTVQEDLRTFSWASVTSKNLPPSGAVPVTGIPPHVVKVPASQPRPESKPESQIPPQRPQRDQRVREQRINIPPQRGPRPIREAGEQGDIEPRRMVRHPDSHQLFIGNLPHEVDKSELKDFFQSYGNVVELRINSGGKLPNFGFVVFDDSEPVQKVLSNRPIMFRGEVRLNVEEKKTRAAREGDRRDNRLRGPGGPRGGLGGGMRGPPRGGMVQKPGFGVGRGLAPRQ
All sequences stand within: GGGAGUUCUACAGUCCGACGAUC … UGGAAUUCUCGGGUGUCAAGG
CCUCAAGUCCUGUGCUACACAUCGUAUGUACCGAAUCGGAAAGGAGGUUUGGAAAGUAUUAUGUUACGCCGUUCGGAUCUGCACUUCCAG: -0.296
CUGUGCUACACAUCGUAUGUACCGAAUCAAACCCCCCCAAAUUUUUUUAAAUUUUUUUAAAAAAGUAUUAUGUUACGCCGUUCGGAUCUG: -0.0844
UCUAGAUACAGAUGCACGAUUUGGCCAUGGAUCCGACUACUCUCGCCAACAGAACAGAUUUAAUGACUUUGAUCACCGAGAGAGGGGCAG: 0.265
GUGCUACACAUCGUAUGUACCGAAUCGGGGAAAAAAAGGGGAAAAAAAGGGGAAAAAAAGGGGAAAGUAUUAUGUUACGCCGUUCGGAUC: -0.313
UAACUUUAGAGGAGGAUCUGAUGUAUAUGGCAGUGGACGUGGAUUUGGGGAUGGCUAUAAUGGGUAUGGAGGAGGACCUGGAGGUGGCAA: 0.232
AGUCCUGUGCUACACAUCGUAUGUACCGAAUCGGGUUUGGGUUUUUUUGGGAAAGGGAAAGUAUUAUGUUACGCCGUUCGGAUCUGCACU: -0.049
UCCUGUGCUACACAUCGUAUGUACCGAAUCGGGGAAAAAGGGGUUUGGGGAAAAAGGGGAAAGUAUUAUGUUACGCCGUUCGGAUCUGCA: 0.62
CCUGUGCUACACAUCGUAUGUACCGAAUCGGGGAGGGGAAAAAAAGGGGAAAAAAAGGGGAAAGUAUUAUGUUACGCCGUUCGGAUCUGC: 0.0948
CUCAAGUCCUGUGCUACACAUCGUAUGUACCGAAUCGGUUUUUGGAGGUUUGGAAAGUAUUAUGUUACGCCGUUCGGAUCUGCACUUCCA: -0.64
UCCUCAAGUCCUGUGCUACACAUCGUAUGUACCGAAUCGGGGAGGGAGGAGGAAAGUAUUAUGUUACGCCGUUCGGAUCUGCACUUCCAG: 0.417
UAAUUAUGUUUUAUUUUCUUUAAUUGCAGGACUUCAUAGACCUCACGUUGUCGAAGACUCAACGAAAGACUCCAACCGUUAUUCAUAAAC: 0.0671
AAGUCCUGUGCUACACAUCGUAUGUACCGAAUCGGGUUUUUUUGGGUUUGGGUGGGAAAGUAUUAUGUUACGCCGUUCGGAUCUGCACUU: 0.163
UCAAGUCCUGUGCUACACAUCGUAUGUACCGAAUCGGAAAGGGGAAAGGGAAAGGAAAGUAUUAUGUUACGCCGUUCGGAUCUGCACUUC: -0.798
UAACUUUAGAGGAGGAUCUGAUGGAUAUGGCAGUGGACGUGGAUUUGGGGAUGGCUAUAAUGGGUAUGGAGGAGGACCUGUAGGUGGCAA: 0.054

Sample 4 — method: universal PBM; form: double-stranded DNA, one strand shown; medium: in vitro; tested at: 600 nM; direction: higher = stronger binding; endpoint: E-score
Target: Sal-like protein 4, full length isoform A (SALL4, Homo sapiens, UniProt Q9UJQ4, residues 1-1053)
Sequence of UniProt Q9UJQ4 (whole entry, looked up): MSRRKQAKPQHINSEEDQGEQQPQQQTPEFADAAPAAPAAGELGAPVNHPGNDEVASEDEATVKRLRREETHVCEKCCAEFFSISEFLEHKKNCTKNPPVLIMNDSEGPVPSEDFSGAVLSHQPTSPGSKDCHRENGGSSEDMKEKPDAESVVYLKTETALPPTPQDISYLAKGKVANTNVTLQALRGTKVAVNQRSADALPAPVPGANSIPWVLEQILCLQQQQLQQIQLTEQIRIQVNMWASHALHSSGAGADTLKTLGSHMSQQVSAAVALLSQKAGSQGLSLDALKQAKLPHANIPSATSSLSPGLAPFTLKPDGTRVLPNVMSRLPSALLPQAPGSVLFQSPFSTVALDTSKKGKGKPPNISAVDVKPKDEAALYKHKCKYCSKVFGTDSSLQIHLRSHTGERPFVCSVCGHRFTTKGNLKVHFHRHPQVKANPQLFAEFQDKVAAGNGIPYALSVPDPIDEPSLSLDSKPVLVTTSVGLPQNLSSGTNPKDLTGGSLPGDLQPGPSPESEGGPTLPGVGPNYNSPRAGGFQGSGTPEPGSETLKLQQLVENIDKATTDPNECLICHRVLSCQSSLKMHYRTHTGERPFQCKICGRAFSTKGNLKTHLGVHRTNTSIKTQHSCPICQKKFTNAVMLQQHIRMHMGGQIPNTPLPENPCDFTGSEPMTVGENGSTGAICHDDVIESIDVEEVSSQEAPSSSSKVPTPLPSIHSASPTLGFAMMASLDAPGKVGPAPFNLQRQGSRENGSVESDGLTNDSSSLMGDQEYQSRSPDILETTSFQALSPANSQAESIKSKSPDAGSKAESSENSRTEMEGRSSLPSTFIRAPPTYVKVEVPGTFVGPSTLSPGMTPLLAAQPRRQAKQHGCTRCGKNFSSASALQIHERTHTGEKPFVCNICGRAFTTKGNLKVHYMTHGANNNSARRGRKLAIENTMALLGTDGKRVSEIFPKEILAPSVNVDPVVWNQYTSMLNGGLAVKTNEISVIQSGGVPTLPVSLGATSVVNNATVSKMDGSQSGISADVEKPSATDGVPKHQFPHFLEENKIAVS
Notes: 8-mer, flanks averaged, mean of replicates
GCCGCCGA: -0.292
GCCCCAGA: -0.409
CTTGGCAA: -0.0704
CCAACAGC: -0.236
GCGCGAAA: 0.0392
AGCAAAAA: 0.255
GAGATCGC: -0.189
AAAGTACG: 0.14
CTCGACTA: -0.0352
AGGCAAAG: 0.0933
AAGAGCCC: -0.252
CTTATATC: 0.321
ACGGGAAC: -0.197
GAAACGAA: 0.203
TAGCGCAA: 0.157
CTGCTTTC: -0.0402
TAACGCAA: 0.233
GGTTGGGA: -0.209
GGTCGGAC: -0.31
ACCGAGCG: -0.165
CCTCAACG: -0.141
CCATTAAA: 0.127
GCGTCGCA: -0.173
CACTAAGA: -0.147
AATGCTCC: -0.184
